Measurements of several laboratories.
Each numbered part is a random draw from the data of one study; scales do not carry over between parts.

Set 1 — technique: protein binding microarray; molecule type: double-stranded DNA, one strand shown; medium: in vitro; concentration: not given; reference: not given; reading: higher = stronger binding
Target: Histone acetyltransferase KAT6A, winged helix 1, GST fusion (KAT6A, Homo sapiens, UniProt Q92794, residues 1-85)
Setting: 8-mer, flanks averaged, mean of 2 arrays, mostly near background
Residues (chain): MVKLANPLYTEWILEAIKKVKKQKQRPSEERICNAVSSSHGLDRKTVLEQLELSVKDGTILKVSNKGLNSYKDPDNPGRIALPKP
Oligonucleotide	E-score
GAGAATAA	-0.238
GACTTCAC	-0.0796
CTTTATAC	0.0419
AAGAGCTG	-0.196
CGTGGCAC	-0.021
CGAGGATA	-0.209
CCGCTTCC	0.24
GAGCAACC	-0.0103
ACCTGATC	-0.0775
CTGAACAG	-0.174
ACCGTACT	0.186
ACTAGAGC	0.0556
AATGATCG	0.0737
CTAGCGAC	0.0493
ATGACATC	0.0518
GAGCATGC	-0.0879
CTAGTCTC	-0.178
CTTTTTGA	-0.231
GATAGGTA	-0.114
GGCGGGCA	0.327
ATGTCCTG	-0.0167
GAGCACTA	-0.0299
CAACATTG	-0.166
ACCTCAGT	-0.239
AGGTGACG	0.0186

Set 2 — technique: protein-binding microarray; molecule type: hairpin DNA; medium: in vitro; concentration: not given; reference: not given; reading: higher = stronger binding; all sequences stand within: GAGGCCG … CGGCCTCACACTC
Target: Homeobox protein Hox-B13, full length (HOXB13, Homo sapiens, UniProt Q92826, residues 1-284)
Sequence of UniProt Q92826 (whole entry, looked up): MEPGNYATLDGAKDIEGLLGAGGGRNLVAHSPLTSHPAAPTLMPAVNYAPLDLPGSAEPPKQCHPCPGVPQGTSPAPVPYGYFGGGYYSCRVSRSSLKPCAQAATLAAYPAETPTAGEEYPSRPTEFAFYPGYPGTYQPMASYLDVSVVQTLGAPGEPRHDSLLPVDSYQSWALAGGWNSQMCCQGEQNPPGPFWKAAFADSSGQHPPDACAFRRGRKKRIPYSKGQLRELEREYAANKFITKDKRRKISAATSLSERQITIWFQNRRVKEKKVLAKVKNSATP
Setting: whole hairpin DNA, median over replicate spots
Oligonucleotide	median fluorescence
TTCTACGAGGGCCTCCTGGCCCTCGTAGAA	4060 a.u.
TTTTATGAGGGCCTCCTGGCCCTCATAAAA	5080 a.u.
TTTTATTGCGGCCTCCTGGCCGCAATAAAA (5mC at 28)	5040 a.u.
TTTTATTCGGGCCTCCTGGCCCGAATAAAA	4180 a.u.
TTTCGCGAGGGCCTCCTGGCCCTCGCGAAA (5mC at 33)	4120 a.u.
TTTTAGTGGGGCCTCCTGGCCCCACTAAAA	4310 a.u.
TTTTACGACGGCCTCCTGGCCGTCGTAAAA (5mC at 16)	4420 a.u.
TTTTACTGGGGCCTCCTGGCCCCAGTAAAA (5mC at 13)	4720 a.u.
TTTTACGGGGGCCTCCTGGCCCCCGTAAAA (5mC at 13)	4630 a.u.
TGTTACGAGGGCCTCCTGGCCCTCGTAACA	4570 a.u.
TTTTACCGGGGCCTCCTGGCCCCGGTAAAA (5mC at 14)	4250 a.u.
TTTGACGAGGGCCTCCTGGCCCTCGTCAAA (5mC at 34)	4170 a.u.
CGTTACGAGGGCCTCCTGGCCCTCGTAACG (5mC at 36)	4360 a.u.

Set 3 — technique: RNA Bind-n-Seq; molecule type: RNA; medium: in vitro; concentration: not given; setting: RNA with constant flanks, ends assumed; reference: input RNA pool; reading: higher = stronger binding
Target: RING finger protein unkempt homolog, zinc fingers 1-6, GST-SBP tag (UNK, Homo sapiens, UniProt Q9C0B0, residues 30-357)
Sequence of UniProt Q9C0B0 (30-357, looked up): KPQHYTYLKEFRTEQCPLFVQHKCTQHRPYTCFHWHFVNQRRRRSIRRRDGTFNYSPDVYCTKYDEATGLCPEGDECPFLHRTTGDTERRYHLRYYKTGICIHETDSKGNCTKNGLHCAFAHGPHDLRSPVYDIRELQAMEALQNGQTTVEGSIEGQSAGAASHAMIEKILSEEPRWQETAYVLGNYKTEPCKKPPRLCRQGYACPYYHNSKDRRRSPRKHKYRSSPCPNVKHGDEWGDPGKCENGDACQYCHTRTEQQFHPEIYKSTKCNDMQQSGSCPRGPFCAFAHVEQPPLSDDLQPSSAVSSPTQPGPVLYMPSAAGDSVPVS
Oligonucleotide	bound/input enrichment [ratio]
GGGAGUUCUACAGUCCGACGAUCGAUAGGAAAAACUUGUUGGAGACCCGAUUGCACAUCACUGGCAGAGAACUGAGGUCCAAAACCGCUGAAACCUUUGGACUUCAAGAAAAUUAUAUCAAAAUUGUCAUAAAUAAGAAGCAACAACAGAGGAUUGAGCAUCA	0.637
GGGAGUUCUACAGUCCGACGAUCAGCAUGUUACAGCGGAAAAUUGCAGAGCUCGAGGAAGAACAGUCCCAGGGCUCCACCACAAACCGUGACUGGAUGAAAAACCUCAUCUCCCCUGACUUAGGAGUUGUAUUUCUCAAUGUACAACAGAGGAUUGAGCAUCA	0.251
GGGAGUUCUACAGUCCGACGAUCUACUGGAGGUCACUAGUUUUGUGAAGAGAUAUAGAACUUCUGGUUGAUGCUUCCUAGCGUUCCGGAUACGAGUUAUUGCACUCUACUUCCUAGCCUCUACUUUUAACUUGUAAGGCCUGCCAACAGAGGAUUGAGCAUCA	0.275
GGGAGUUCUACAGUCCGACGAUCGUGCAGACUGCCUCAAAACAAGUUGAUGGUGAUUAUGUUGUGUCUGAAUGGAGUGAAAUUACCGAAUUCUGCACCGCAGACUAUUCAAAAGUUCAUCUAACACAAUUGUUGGAGAAGGCUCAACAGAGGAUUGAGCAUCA	0.184
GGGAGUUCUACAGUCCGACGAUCCAGCCGCUCAUGUACGUGAAAGUGCUCAUCCAGGUGGGAUAUGAGCCUCUUCCUCCAACAACCGGACGAAAUAUUUUUGGGCGACAAGUAUGUCAGCUUCCUGGCCUCUUUUGCUAUGCUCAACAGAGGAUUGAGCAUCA	0.208
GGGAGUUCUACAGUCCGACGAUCCCCUGUUUAUUGGCUGGAGGUUUAUUAACAUAUAAGUCUCCUGCUACCUCACCCAUCCGCCGUAAUUCUCACAGGUCACUGGAUGGUUUAAGCAGAACUCAGGGCGAAAGUAUAUCAGAACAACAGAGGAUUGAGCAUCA	0.12
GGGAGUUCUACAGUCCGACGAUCUUGUAUUGUUGAUGAUAAGUGUUGACAUUGGGUAGUGUAGAAGCAACAAGCAUGUCCUUGCCGUACAGGUACAGUGAAGGAUAGAACACACUUUCGUUGAUACAAAAAUUUAAAUAGUUACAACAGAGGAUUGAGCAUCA	0.455
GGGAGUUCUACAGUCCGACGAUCAAUCUCUGGGAACACUAUUAUAAAGAAGGCCAAGCUAUUAUUUUUGUCAUUGAUAGCCGUGACCGAUUAAGAAUGGUUGUGGCCAAAGAAGAACUCGAUACUCUUCUGAAUCAUCCAGAUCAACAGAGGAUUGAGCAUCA	0.104
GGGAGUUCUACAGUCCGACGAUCUCAUGGUGUGAAAUAUAUCUACCCAAAGAGGUAACAUCCUAUAAAUAGUAGUAAUUAAUUCCGCUGCAACCUUUUUAGGUAUUAAAUUACAUGACAAACAGUUAAAAUGAAUUUAAGAAUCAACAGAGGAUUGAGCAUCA	6.1
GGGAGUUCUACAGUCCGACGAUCUCCACCAAGAGCCUCUUCCUUGGCCAGAAGCUGAACCUUAUUCACAGUGAAAUCAGUAAUUCCGCCGGCUUUGAGGUGGAGGCCAUAAUCAAUCCUACCAAUGCUGACAUUGACCUUAAACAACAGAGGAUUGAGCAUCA	0.123
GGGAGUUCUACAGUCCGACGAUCGAACUGGUGGACUACAUUACAAUAAGCAGAGGCUGUCUGACAGAGCAGACUUACCCUGAAGCCGUCCGAAUGGUAUCUUGCAAUAUAUUCAGAACUCUCCCUCCUAGUGACAGCAAUGAACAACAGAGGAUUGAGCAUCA	0.267

Set 4 — technique: RNA Bind-n-Seq; molecule type: RNA; medium: in vitro; concentration: 365 nM; reference: no-protein control; reading: higher = stronger binding
Target: RNA binding protein fox-1 homolog 2, RRM domain, GST-SBP tag (RBFOX2, Homo sapiens, UniProt O43251-10, residues 100-194)
Setting: natural RNA segment, single round, ends assumed
Residues (chain): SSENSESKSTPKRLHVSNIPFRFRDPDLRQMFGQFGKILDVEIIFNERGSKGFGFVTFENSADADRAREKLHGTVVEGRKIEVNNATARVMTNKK
Oligonucleotide	RBNS enrichment (R)
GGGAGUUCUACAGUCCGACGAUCAAUAUUUGUUUGGGUGGUUUGUGAGCCUUGCUGCCAAGUCCUGCCUUUGGGUCGACAUAGUAUGGAAGUAUUUGAGAGAGAGAACCUUUCCACUCCCACUGCCAGGAUUUUGGAAUUCUCGGGUGCCAA	0.713
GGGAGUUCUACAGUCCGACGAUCGGCUACUGUUUGUCCUGUGGCAGCCGGCUACAGUCUCGUCUGAGUGGCCUCAUCUGGACCCUUCCUGUUAUUAAUAAAACGCUUCUGGAGGCCAGAUCUGUGCUCAAGCCUGGAAUUCUCGGGUGCCAA	0.207
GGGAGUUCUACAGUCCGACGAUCCUGCUAUUUGAAGUGUAAUUGAGAAGGAAAAUUUUAGCGUGCUCACUGACCUGCCUGUAGCCCCAGUGACAGCUAGGAUGUGCAUUCUCCAGCCAUCAAGAGACUGAGUCUGGAAUUCUCGGGUGCCAA	1.35
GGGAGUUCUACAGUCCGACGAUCGACCCUGACUCUAAUACCACACAAAACAGAACAAAAAUCCAGCAAAGAUAGGAUCGGAGAUACCUGUAGUCUUCAGACCUUUAGUGCCUGUAUUUAUCCAUCAUUACUGAUGGAAUUCUCGGGUGCCAA	0.575
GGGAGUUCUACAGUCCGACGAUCCAGCUUCUAAAGACAUUGUCACCGAGUGUGUGUGACUCAAAGAUCAAGAGUGAGGCUAAACUGCGACCCCAACAUCACUUCCUUCAUGGAAAGGUGUUGGCGCUGAUGUAUGGAAUUCUCGGGUGCCAA	0.263
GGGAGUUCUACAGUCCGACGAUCUAUUUAAAAGAAAAGAAAAAAAAGAACCCAACCACACAAAGAACAAAACAAAUAGCCAACAAACAGGAAUUCAGGGUCGCUUUGCUUGCUCUCUGUGCUCUGUGGUGGCUUGGAAUUCUCGGGUGCCAA	0.931
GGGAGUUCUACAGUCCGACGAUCAAUUACGUCUUGAGUCUGGGAUUAUCCGCAUUGUAUUUAGUGCUUUGUAAUAAAAUAUGUUUUGUAGAACAUUAAGACUUAUAUACAGUUUUAGGGGACAAUUGAGAUGGUGGAAUUCUCGGGUGCCAA	0.932
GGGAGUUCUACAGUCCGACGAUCUGAAUGGCUAAGGGAACAUCUGGAAAGGAAGGAAAAUGAGCCCUAAAGGUUUUUUGGUUGCUUGUUUUUGUUUCUUUUUCUUUCUUGUUUCCUUUUUUGUUUUUAAAUCCUGGAAUUCUCGGGUGCCAA	0.448
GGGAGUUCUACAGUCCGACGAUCGACAGGCAGACAGACAUGAACAUUACUGAUGUGCUUUUCCGACCUGCUAUGUGCAGGCAGGCAGGGGUUAUCUUCCUGGGUCUCACAGACUUUCAUGGUUUUCCUUACCCUGGAAUUCUCGGGUGCCAA	0.367
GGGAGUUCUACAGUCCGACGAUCCCGCCACCCCCGCCGUGGGGCUCCGGAGGGGACCCAGCUCCUCUGAGCCAUACCGACCAUCGUCCAGCCCUCCUACGCAGAUGCUGUCACUGGCAGAGCACAGCCCACGGUGGAAUUCUCGGGUGCCAA	0.342
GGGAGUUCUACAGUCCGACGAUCAGGGCUUCACUCCCAGAGCACCCCCUUAAUCCCCACUUUUCAGGCCGUCUCAGUAUUGCCUAUGGGGGGUCACCCUCCUUCCCCUACCCCAAGUGCCUUUGCUAUGUUUUUGGAAUUCUCGGGUGCCAA	1.47
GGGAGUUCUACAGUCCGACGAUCAGUAGGUGGCGGAAGGACAUGGACACUGUCUAUCUCUGCUCUGUUGUAAUAAAUGUGAGAUCUUGGAUGUGUCUGCUCCUGGAAGCUGGGUAGUUCCUGCUGUUUGCAGGUGGAAUUCUCGGGUGCCAA	0.521

For quick reference, copied from above (set 1):
Oligonucleotide	E-score
GAGAATAA	-0.238
CCGCTTCC	0.24
CTAGTCTC	-0.178
CTGAACAG	-0.174
GAGCAACC	-0.0103
GAGCATGC	-0.0879
CGAGGATA	-0.209
GACTTCAC	-0.0796
GGCGGGCA	0.327
